Experimental data gathered from unrelated publications.
Each line is one published result; not all experiments were run side by side.
Route: oral

SMILES | assay | test system | setting | endpoint | value
O=C(COc1ccc(Cl)cc1)NC12CC(c3nnc([C@H]4C[C@@H](OC(F)(F)F)C4)o3)(C1)C2 |  | human both sexes | 145 mg once daily, 14 days | participants with headache | 71.4%
CC(C)c1nc(CN(C)C(=O)N[C@@H](CCN2CCOCC2)C(=O)N[C@H](CC[C@H](Cc2ccccc2)NC(=O)OCc2cncs2)Cc2ccccc2)cs1 |  | human | dose not given | participants with Urticaria | 0%
CCCS(=O)(=O)N[C@H]1C[C@@H](N(C)c2ncnc3[nH]ccc23)C1 |  | healthy human | dose not given, added: dabigatran etexilate | participants with TRAEs | 25%
CN1C(=O)[C@@H](NC(=O)c2nnc(Cc3ccccc3)[nH]2)COc2cccnc21 | phase I single ascending dose | human, male and female | 100 mg, fasted | participants with any AE of special interest | 0%
COC(=O)N[C@H](C(=O)N1CCC[C@H]1c1ncc(-c2cc(F)c3c(c2)O[C@@H](c2cnc(C4CC4)s2)n2c-3cc3cc(-c4cnc([C@@H]5CCCN5C(=O)[C@@H](NC(=O)OC)C(C)C)[nH]4)ccc32)[nH]1)C(C)C |  | healthy adult humans | 180 mg, 6 days | participants with Nausea | 0%
C[C@H]1O[C@@H](O[C@H]2[C@@H](O)C[C@H](O[C@H]3[C@@H](O)C[C@H](O[C@H]4CC[C@@]5(C)[C@H](CC[C@@H]6[C@@H]5C[C@@H](O)[C@]5(C)[C@@H](C7=CC(=O)OC7)CC[C@]65O)C4)O[C@@H]3C)O[C@@H]2C)C[C@H](O)[C@@H]1O | refers to: Headache | human | 0.25 mg | participants with TEAE | 10.3%
CC(C)c1nc(N(C)S(C)(=O)=O)nc(-c2ccc(F)cc2)c1/C=C/[C@@H](O)C[C@@H](O)CC(=O)O |  | human | 10 mg, alone | participants with TRAEs | 0%
CC(C)c1nc(N(C)S(C)(=O)=O)nc(-c2ccc(F)cc2)c1/C=C/[C@@H](O)C[C@@H](O)CC(=O)O | refers to: vessel puncture site pain | human | 10 mg | participants with TEAE | 6.9%
CCn1c(=O)c(-c2cc(NC(=O)Nc3ccccc3)c(F)cc2Br)cc2cnc(NC)cc21 | refers to: lipase increased | human, moderate hepatic impairment | 50 mg single dose | participants with grade ≥ 3 TEAE | 12.5%

Some of these lines once more:
SMILES | assay | test system | setting | endpoint | value
O=C(COc1ccc(Cl)cc1)NC12CC(c3nnc([C@H]4C[C@@H](OC(F)(F)F)C4)o3)(C1)C2 |  | human both sexes | 145 mg once daily, 14 days | participants with headache | 71.4%
